Measured values of several laboratories.
Lines come from different studies, so protocols differ. Numbers after ± are the reported error.
Chymotrypsin-C: Chymotrypsin-C (Homo sapiens, UniProt Q99895)
Sequence of UniProt Q99895 (whole entry, unmodified, looked up): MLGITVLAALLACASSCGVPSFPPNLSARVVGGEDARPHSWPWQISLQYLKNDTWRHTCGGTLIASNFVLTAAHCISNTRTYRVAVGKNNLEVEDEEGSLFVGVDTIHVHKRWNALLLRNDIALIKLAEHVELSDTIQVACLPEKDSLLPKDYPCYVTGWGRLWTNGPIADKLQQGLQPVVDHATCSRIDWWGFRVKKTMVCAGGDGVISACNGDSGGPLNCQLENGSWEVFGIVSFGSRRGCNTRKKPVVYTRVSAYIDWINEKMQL
Magi2: Membrane-associated guanylate kinase, WW and PDZ domain-containing protein 2 (Magi2, Mus musculus, UniProt Q9WVQ1)
Sequence of UniProt Q9WVQ1 (whole entry, looked up): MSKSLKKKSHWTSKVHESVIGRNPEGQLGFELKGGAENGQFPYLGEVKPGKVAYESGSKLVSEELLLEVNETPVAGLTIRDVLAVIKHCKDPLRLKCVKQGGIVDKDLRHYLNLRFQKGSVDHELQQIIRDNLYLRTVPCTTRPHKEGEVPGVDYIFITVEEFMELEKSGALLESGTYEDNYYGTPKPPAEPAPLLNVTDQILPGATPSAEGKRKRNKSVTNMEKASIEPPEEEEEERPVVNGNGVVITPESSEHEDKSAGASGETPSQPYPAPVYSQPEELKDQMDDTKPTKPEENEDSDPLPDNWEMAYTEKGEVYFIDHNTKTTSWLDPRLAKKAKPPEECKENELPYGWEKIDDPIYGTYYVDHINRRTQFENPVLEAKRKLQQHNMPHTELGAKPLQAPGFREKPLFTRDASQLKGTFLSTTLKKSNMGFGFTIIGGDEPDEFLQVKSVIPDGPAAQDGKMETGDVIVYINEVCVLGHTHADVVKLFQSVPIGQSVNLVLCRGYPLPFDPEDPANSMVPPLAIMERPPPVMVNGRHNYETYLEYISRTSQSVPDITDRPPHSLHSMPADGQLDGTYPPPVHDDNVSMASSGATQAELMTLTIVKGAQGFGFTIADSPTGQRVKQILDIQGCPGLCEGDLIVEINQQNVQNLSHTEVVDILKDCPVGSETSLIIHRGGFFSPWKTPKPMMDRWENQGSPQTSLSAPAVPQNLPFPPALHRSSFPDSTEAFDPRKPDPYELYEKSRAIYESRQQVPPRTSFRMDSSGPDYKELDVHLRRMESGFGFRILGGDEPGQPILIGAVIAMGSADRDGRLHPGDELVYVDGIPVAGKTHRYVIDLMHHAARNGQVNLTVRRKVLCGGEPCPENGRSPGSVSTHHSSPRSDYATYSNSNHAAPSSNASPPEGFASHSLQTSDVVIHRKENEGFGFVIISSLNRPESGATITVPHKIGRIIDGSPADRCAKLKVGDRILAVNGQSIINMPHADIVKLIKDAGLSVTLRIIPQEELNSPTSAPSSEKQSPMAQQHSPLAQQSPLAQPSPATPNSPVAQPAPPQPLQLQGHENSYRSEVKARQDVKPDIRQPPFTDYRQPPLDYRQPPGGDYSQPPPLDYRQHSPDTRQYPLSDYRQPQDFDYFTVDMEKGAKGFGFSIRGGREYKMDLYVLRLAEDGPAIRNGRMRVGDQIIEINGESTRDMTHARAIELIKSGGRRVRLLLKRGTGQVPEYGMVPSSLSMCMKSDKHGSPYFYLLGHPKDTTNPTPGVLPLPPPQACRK
Sequence of UniProt P09619 (whole entry, looked up): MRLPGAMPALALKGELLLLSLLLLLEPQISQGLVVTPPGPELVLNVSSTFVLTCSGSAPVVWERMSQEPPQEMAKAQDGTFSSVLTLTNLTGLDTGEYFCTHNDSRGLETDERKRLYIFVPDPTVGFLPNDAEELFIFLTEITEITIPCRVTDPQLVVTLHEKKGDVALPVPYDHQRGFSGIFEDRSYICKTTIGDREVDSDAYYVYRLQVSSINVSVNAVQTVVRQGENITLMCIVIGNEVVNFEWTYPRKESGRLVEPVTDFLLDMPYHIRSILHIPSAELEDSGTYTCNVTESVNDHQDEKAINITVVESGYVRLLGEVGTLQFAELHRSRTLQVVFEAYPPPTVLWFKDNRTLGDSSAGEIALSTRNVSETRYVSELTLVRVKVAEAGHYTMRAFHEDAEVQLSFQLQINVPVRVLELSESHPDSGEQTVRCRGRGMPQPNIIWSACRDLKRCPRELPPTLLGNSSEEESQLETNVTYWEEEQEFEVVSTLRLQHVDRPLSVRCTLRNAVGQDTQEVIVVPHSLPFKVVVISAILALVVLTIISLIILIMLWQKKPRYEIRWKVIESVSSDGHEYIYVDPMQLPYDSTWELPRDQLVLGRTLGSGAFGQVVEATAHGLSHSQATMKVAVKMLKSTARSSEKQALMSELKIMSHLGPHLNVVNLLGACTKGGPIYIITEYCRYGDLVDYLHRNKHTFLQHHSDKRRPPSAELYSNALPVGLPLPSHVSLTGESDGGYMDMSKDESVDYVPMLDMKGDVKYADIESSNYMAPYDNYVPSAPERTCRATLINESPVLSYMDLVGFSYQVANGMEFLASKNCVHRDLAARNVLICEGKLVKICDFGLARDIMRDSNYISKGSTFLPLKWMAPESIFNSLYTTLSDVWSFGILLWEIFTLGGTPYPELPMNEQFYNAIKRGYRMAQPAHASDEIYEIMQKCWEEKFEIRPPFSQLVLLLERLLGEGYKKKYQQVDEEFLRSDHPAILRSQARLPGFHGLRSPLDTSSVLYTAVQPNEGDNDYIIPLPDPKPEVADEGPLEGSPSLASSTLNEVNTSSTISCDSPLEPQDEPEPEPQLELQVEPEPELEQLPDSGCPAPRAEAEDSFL
Sequence of UniProt P62258 (whole entry, looked up): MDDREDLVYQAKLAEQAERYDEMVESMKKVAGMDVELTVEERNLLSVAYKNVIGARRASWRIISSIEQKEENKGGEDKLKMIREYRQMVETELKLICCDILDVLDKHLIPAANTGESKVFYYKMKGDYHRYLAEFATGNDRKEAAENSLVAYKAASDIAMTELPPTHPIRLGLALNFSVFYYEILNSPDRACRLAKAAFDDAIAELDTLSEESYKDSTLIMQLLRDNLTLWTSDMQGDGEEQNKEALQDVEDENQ
Sequence of UniProt Q12884 (whole entry, looked up): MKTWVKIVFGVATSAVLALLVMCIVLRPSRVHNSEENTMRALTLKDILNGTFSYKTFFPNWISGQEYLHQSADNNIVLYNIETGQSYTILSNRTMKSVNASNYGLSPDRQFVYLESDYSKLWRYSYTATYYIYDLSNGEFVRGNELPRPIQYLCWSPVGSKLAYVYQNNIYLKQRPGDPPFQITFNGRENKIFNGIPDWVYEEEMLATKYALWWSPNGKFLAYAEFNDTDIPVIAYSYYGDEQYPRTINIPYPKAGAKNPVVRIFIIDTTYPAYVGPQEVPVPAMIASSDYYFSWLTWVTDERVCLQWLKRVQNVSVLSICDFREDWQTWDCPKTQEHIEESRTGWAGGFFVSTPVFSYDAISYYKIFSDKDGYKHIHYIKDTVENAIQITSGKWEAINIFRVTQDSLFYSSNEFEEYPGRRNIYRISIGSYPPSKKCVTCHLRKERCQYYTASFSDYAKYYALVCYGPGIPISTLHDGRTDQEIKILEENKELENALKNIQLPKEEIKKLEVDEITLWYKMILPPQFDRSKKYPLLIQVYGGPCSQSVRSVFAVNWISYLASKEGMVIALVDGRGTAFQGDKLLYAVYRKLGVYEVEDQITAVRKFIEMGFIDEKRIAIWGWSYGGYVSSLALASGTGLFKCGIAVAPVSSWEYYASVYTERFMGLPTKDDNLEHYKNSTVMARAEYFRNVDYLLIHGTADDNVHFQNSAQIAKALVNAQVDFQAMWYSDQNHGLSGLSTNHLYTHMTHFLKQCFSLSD
Sequence of UniProt Q07820 (whole entry, looked up): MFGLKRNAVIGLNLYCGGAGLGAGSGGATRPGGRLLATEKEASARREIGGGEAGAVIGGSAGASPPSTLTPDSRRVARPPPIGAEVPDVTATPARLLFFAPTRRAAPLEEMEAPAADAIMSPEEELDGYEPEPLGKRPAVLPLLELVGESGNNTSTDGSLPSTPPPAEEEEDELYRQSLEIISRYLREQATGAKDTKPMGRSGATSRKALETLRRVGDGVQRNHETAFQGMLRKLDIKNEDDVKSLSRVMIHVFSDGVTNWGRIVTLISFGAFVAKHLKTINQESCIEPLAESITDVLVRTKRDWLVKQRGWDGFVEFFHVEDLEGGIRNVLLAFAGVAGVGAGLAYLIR
Sequence of UniProt Q16512 (whole entry, looked up): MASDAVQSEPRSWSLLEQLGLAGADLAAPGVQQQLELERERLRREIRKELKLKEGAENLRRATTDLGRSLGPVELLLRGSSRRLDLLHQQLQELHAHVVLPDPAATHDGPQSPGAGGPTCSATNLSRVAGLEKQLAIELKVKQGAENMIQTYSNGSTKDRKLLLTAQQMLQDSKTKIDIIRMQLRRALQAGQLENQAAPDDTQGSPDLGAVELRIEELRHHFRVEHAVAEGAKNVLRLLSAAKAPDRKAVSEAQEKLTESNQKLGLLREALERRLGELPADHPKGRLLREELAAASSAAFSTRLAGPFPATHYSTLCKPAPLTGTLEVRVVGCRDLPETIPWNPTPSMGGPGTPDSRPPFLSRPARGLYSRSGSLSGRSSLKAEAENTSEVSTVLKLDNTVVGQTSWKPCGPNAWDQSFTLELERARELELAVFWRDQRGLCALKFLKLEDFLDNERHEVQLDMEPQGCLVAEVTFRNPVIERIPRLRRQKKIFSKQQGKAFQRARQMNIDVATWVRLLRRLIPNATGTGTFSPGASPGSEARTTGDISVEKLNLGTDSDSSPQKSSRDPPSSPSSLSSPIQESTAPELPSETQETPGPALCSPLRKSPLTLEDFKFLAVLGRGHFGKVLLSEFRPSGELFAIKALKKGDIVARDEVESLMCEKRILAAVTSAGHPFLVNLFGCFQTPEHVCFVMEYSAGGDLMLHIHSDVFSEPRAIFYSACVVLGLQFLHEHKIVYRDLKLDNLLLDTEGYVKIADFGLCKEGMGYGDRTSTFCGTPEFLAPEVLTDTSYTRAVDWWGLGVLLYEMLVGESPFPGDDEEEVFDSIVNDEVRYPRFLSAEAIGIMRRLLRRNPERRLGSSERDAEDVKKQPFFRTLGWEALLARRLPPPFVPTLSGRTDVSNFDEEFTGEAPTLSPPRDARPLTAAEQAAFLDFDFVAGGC

With O=C(N[C@@H]1c2ccccc2C[C@H]1N1CCCC1)c1ccc(-c2ccnc3[nH]ccc23)nc1 the Kd was 520 nM (PKN1 (Homo sapiens, UniProt Q16512); binding, competition with immobilised ligand).
The Kd of CC[C@H](C)[C@H](NC(=O)[C@H](CCCNC(=N)N)NC(=O)[C@H](CCCNC(=N)N)NC(=O)[C@H](CC(C)C)NC(=O)[C@H](CCC(=O)O)NC(=O)[C@H](CCC(N)=O)NC(=O)[C@H](C)NC(=O)[C@@H](NC(=O)[C@H](CNC(=O)CCl)NC(=O)[C@H](CCCNC(=N)N)NC(=O)[C@H](CCCNC(=N)N)NC(=O)[C@@H]1CCCN1C(=O)[C@H](CCCNC(=N)N)NC(=O)[C@H](CCCNC(=N)N)NC(=O)[C@@H]1CCCN1C(=O)[C@H](CCCNC(=N)N)NC(=O)[C@H](CCCNC(=N)N)NC(=O)[C@@H]1CCCN1C(=O)[C@H](CCCNC(=N)N)NC(=O)[C@H](CCCNC(=N)N)NC(=O)[C@@H]1CCCN1C(=O)[C@H](CCCNC(=N)N)NC(=O)[C@H](CCCNC(=N)N)NC(=O)[C@@H]1CCCN1C(C)=O)[C@@H](C)CC)C(=O)NCC(=O)N[C@@H](CC(=O)O)C(=O)N[C@@H](CCC(=O)O)C(=O)N[C@@H](Cc1ccccc1)C(=O)N[C@@H](CC(N)=O)C(=O)N[C@@H](C)C(=O)N[C@@H](Cc1ccc(O)cc1)C(=O)N[C@@H](Cc1ccc(O)cc1)C(=O)N[C@@H](C)C(=O)N[C@@H](CCCNC(=N)N)C(=O)N[C@@H](CCCNC(=N)N)C(N)=O is reported as 11.6 nM (MCL1 (Homo sapiens, UniProt Q07820); binding, ITC).
CC(=O)N[C@@H](CCCNC(=N)N)C(=O)N[C@H](C(=O)N[C@@H](CCCCN)C(=O)N[C@@H](CO)C(=O)N[C@@H](CCCNC(=N)N)C(=O)N[C@H](C(=O)N[C@@H](Cc1c[nH]c2ccccc12)C(=O)N[C@@H](C)C(=O)N[C@@H](C)C(N)=O)[C@@H](C)OP(=O)(O)O)[C@@H](C)O has a Kd of 84.2 nM (14-3-3 protein epsilon (Homo sapiens, UniProt P62258); binding, SPR).
The Kd of C=CC[C@H]1OC(=O)CCNC(=O)[C@H](C)N(C)C(=O)[C@H]([C@@H](C)CC)N(C)C(=O)[C@H]([C@@H](C)CC)NC(=O)[C@@H]2[C@@H](C)CCN2C1=O is reported as 9060 nM (Platelet-derived growth factor receptor beta, extracellular domain (PDGFRB, Homo sapiens, UniProt P09619); SPR; 35 °C, extracellular domain immobilised).
CSCC[C@@H]1NC(=O)[C@H](C)NC(=O)[C@H](CO)NC(=O)[C@H](CCCCN)NC(=O)CNC(=O)[C@H](CC(=O)O)NC(=O)[C@H](CO)NC(=O)CNC(=O)[C@@H]2CSSC[C@H](NC(=O)[C@@H](NC(=O)[C@@H](NC(=O)[C@H](CCC(=O)O)NC(=O)[C@H](CO)NC(=O)CN)C(C)C)[C@@H](C)O)C(=O)N[C@@H](CCC(=O)O)C(=O)N3CCC[C@H]3C(=O)NCC(=O)N[C@@H]([C@@H](C)O)C(=O)N[C@@H]([C@@H](C)O)C(=O)N[C@@H](Cc3ccccc3)C(=O)N[C@@H](CCCCN)C(=O)N[C@@H](CC(=O)O)C(=O)N[C@@H](CCCCN)C(=O)N[C@H]3CSSC[C@@H](C(=O)N[C@@H](Cc4c[nH]c5ccccc45)C(=O)N[C@@H](CCC(N)=O)C(=O)O)NC(=O)[C@H](CC(C)C)NC(=O)[C@H](CCSC)NC(=O)[C@H](CC(C)C)NC(=O)[C@H](CO)NC(=O)[C@H](CSSC[C@H](NC(=O)[C@H]([C@@H](C)O)NC(=O)[C@H](CC(N)=O)NC3=O)C(=O)N[C@@H](CCCNC(=N)N)C(=O)N2)NC1=O has a Kd of 0.15 nM (Chymotrypsin-C; cell-free assay, FP; pH 8).
CSCC[C@H](NC(=O)[C@H](C)NC(=O)[C@H](CCCCN)NC(=O)[C@H](CC(C)C)NC(=O)[C@H](Cc1ccc(O)cc1)NC(=O)[C@H](COP(=O)(O)O)NC(=O)[C@H](CCC(=O)O)NC(=O)[C@H](CCCNC(=N)N)NC(=O)[C@H](CCCNC(=N)N)NC(=O)[C@H](C)NC(=O)[C@H](C)N)C(=O)N[C@@H](CCC(N)=O)C(=O)N1CCC[C@H]1C(=O)N[C@@H](CO)C(=O)N[C@@H](CC(C)C)C(=O)O gave a Kd of 40 nM (Magi2; ITC; pH 8.0, 25 °C, together with: tandem peptide).
For CSCC[C@@H]1NC(=O)[C@H](CC(C)C)NC(=O)[C@H](Cc2c[nH]c3ccccc23)NC(=O)[C@@H]2CSSC[C@@H]3NC(=O)[C@H]([C@@H](C)O)NC(=O)[C@H](CC(N)=O)NC(=O)[C@H](CSSC[C@@H](C(=O)N[C@@H](CC(=O)O)C(=O)N[C@@H](CCC(N)=O)C(=O)O)NC(=O)[C@H](CC(C)C)NC1=O)NC(=O)[C@H](CCCCN)NC(=O)[C@H](CC(=O)O)NC(=O)[C@H](CCCCN)NC(=O)[C@H](Cc1ccccc1)NC(=O)[C@H]([C@@H](C)O)NC(=O)[C@H]([C@@H](C)O)NC(=O)CNC(=O)[C@@H]1CCCN1C(=O)[C@H](CCC(=O)O)NC(=O)[C@@H](NC(=O)[C@@H](NC(=O)[C@@H](NC(=O)[C@H](CCC(=O)O)NC(=O)[C@H](CO)NC(=O)CN)C(C)C)[C@@H](C)O)CSSC[C@H](NC(=O)[C@H](CCCNC(=N)N)NC3=O)C(=O)NCC(=O)N[C@@H](CO)C(=O)N[C@@H](CC(=O)O)C(=O)NCC(=O)N[C@@H](CCCCN)C(=O)N[C@@H](CO)C(=O)N[C@@H](C)C(=O)N[C@@H](C)C(=O)N2, the Kd was 12.1 ± 2.32 nM (Chymotrypsin-C (Homo sapiens, UniProt Q99895, S216A); competitive fluorescence polarization; 24 h, pH 8.0, together with: FITC-labelled tracer).
CC(C)C[C@H](NC(=O)[C@H](CO)NC(=O)[C@@H]1CCCN1C(=O)[C@H](CCC(N)=O)NC(=O)[C@@H](NC(=O)[C@H](C)NC(=O)[C@H](Cc1ccc(O)cc1)NC(=O)[C@H](CC(C)C)NC(=O)[C@H](Cc1ccc(O)cc1)NC(=O)[C@H](COP(=O)(O)O)NC(=O)[C@H](CCC(=O)O)NC(=O)[C@H](CCCNC(=N)N)NC(=O)[C@H](CCCNC(=N)N)NC(=O)[C@H](C)NC(=O)[C@H](C)N)[C@@H](C)O)C(=O)O gave a Kd of 270 ± 70 nM (Magi2; ITC; pH 8.0, 25 °C, together with: tandem peptide).
The Kd of CC(C)C[C@@H]1NC(=O)[C@H](CC(C)C)NC(=O)[C@H](CC(C)C)NC(=O)[C@H]([C@@H](C)O)NC(=O)[C@@H]2CSSC[C@@H]3NC(=O)[C@H]([C@@H](C)O)NC(=O)[C@H](CC(N)=O)NC(=O)[C@H](CSSC[C@@H](C(=O)N[C@H](C(=O)N[C@@H](CCC(N)=O)C(=O)O)C(C)C)NC1=O)NC(=O)[C@H](CCCCN)NC(=O)[C@H](CC(=O)O)NC(=O)[C@H](CCCCN)NC(=O)[C@H](Cc1ccccc1)NC(=O)[C@H]([C@@H](C)O)NC(=O)[C@H]([C@@H](C)O)NC(=O)CNC(=O)[C@@H]1CCCN1C(=O)[C@H](CCC(=O)O)NC(=O)[C@@H](NC(=O)[C@@H](NC(=O)[C@@H](NC(=O)[C@H](CCC(=O)O)NC(=O)[C@H](CO)NC(=O)CN)C(C)C)[C@@H](C)O)CSSC[C@H](NC(=O)[C@H](CCCNC(=N)N)NC3=O)C(=O)NCC(=O)N[C@@H](CO)C(=O)N[C@@H](CC(=O)O)C(=O)NCC(=O)N[C@@H](CCCCN)C(=O)N[C@@H](CO)C(=O)N[C@@H](C)C(=O)N[C@@H](Cc1c[nH]c3ccccc13)C(=O)N2 is reported as 5.15 nM (Chymotrypsin-C; cell-free assay, FP; pH 8).
For CC[C@H](C)[C@H](NC(=O)[C@H](CCC(=O)O)NC(=O)[C@H](CC(C)C)NC(=O)[C@H](Cc1ccc(O)cc1)NC(=O)[C@H](CCSC)NC(=O)[C@H](CC(=O)O)NC(=O)[C@H](CCC(=O)O)NC(=O)[C@H](CCC(=O)O)NC(=O)[C@H](CC(C)C)NC(=O)[C@@H](N)CC(N)=O)C(=O)N[C@@H](CC(N)=O)C(=O)N[C@@H](CC(=O)O)C(=O)N[C@@H](CC(C)C)C(=O)N[C@@H](CCSC)C(=O)N[C@@H](CCC(=O)O)C(=O)N1CCC[C@H]1C(=O)N[C@@H](CCC(=O)O)C(=O)N1CCC[C@H]1C(=O)N[C@@H](CCC(=O)O)C(=O)N1CCC[C@H]1C(=O)N[C@H](C(=O)O)[C@@H](C)O, the Kd was 43.6 nM (RCD1 (Arabidopsis thaliana, UniProt Q8RY59); ITC; salt 50 mM).
CC(C)C[C@H](NC(=O)[C@@H]1CCCN1C(=O)[C@H](CCCCN)NC(=O)[C@@H](N)CO)C(=O)N1CCC[C@H]1C(=O)N[C@@H](CCC(=O)O)C(=O)N[C@H](C(=O)N[C@H](C(=O)N[C@@H](CC(=O)O)C(=O)N[C@@H](CCC(=O)O)C(=O)N[C@@H](Cc1ccc(O)cc1)C(=O)NCC(=O)NCCOCCOCCOCCOCCOCCOCCOCCOCCOCCOCCOCCOCCOCCOCCOCCOCCOCCOCCOCCOCCOCCOCCOCCOCCC(=O)N[C@@H](CCCCNC(=O)CC[C@H](C(=O)O)N1CCN(CC(=O)O)CCN(CC(=O)O)CC1)C(=O)N1CCN(CCCN(C)c2ccc3nccc(C(=O)NCC(=O)N4CC(F)(F)C[C@H]4C#N)c3c2)CC1)[C@@H](C)O)C(C)C [copper-64 labelled] gave a Kd of 3.34 nM (FAP (Homo sapiens, UniProt Q12884); binding, 64Cu radioligand saturation; HT-1080 expressing hFAP; 1 h, 37 °C, together with: FAPI-04 1 µM for nonspecific).

Excerpt of the above:
The Kd of CC(C)C[C@@H]1NC(=O)[C@H](CC(C)C)NC(=O)[C@H](CC(C)C)NC(=O)[C@H]([C@@H](C)O)NC(=O)[C@@H]2CSSC[C@@H]3NC(=O)[C@H]([C@@H](C)O)NC(=O)[C@H](CC(N)=O)NC(=O)[C@H](CSSC[C@@H](C(=O)N[C@H](C(=O)N[C@@H](CCC(N)=O)C(=O)O)C(C)C)NC1=O)NC(=O)[C@H](CCCCN)NC(=O)[C@H](CC(=O)O)NC(=O)[C@H](CCCCN)NC(=O)[C@H](Cc1ccccc1)NC(=O)[C@H]([C@@H](C)O)NC(=O)[C@H]([C@@H](C)O)NC(=O)CNC(=O)[C@@H]1CCCN1C(=O)[C@H](CCC(=O)O)NC(=O)[C@@H](NC(=O)[C@@H](NC(=O)[C@@H](NC(=O)[C@H](CCC(=O)O)NC(=O)[C@H](CO)NC(=O)CN)C(C)C)[C@@H](C)O)CSSC[C@H](NC(=O)[C@H](CCCNC(=N)N)NC3=O)C(=O)NCC(=O)N[C@@H](CO)C(=O)N[C@@H](CC(=O)O)C(=O)NCC(=O)N[C@@H](CCCCN)C(=O)N[C@@H](CO)C(=O)N[C@@H](C)C(=O)N[C@@H](Cc1c[nH]c3ccccc13)C(=O)N2 is reported as 5.15 nM (Chymotrypsin-C; cell-free assay, FP; pH 8).
